Measured values pooled from the literature.
Every numbered part comes from another study and shows a few of its results, in no order.

Series 1
Target: Interferon regulatory factor 7, full length, phosphomimetic (IRF7, Homo sapiens, UniProt Q92985, residues 1-503, S471D/S472D/S475D/S476D/S477D/S483D/S484D/S487D)
Sequence of UniProt Q92985 (whole entry, unmodified, looked up): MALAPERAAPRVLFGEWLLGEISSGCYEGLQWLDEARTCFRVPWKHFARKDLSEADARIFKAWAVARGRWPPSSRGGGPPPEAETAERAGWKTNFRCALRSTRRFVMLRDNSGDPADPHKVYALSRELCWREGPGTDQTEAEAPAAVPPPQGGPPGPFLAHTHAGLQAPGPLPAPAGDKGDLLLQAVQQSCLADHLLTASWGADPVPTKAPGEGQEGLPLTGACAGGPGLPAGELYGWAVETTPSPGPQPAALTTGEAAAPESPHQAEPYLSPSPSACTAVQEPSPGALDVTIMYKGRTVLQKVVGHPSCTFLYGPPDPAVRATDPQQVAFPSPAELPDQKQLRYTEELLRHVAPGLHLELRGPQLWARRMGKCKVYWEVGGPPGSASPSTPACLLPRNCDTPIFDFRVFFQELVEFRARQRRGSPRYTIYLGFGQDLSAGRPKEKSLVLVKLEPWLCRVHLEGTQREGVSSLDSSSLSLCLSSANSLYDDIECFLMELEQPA
Method: protein-binding microarray
Form: double-stranded DNA, one strand shown
Sample: in vitro
Concentration: 2200 nM top
Setting: 60-bp whole probe
Together with: salmon DNA 0.4 mg/ml
Reference: random background probes
Direction: higher = stronger binding
Constant ends, left off below: GCCTAGCAC … GTCTTGATTCGCTTGACGCTGCTG
Oligonucleotide	fitted relative affinity [z-score]
TTAGATACCGGGTTTCGATTAGTGCTA	2.93
TTAGGTTTCGGCCTGGGTTAGTGCTAG	2.96
AACGGACTGGGGACTGGGGACGTGCTA	-0.568
TTAGGTATCGTGTTTCGGTTAGTGCTA	3.88
TTACGTATCCTACTGCTTTAGTGCTAG	2.16

Series 2
Target: Centromere-binding protein 1, full length, His-tagged (CBF1, Saccharomyces cerevisiae, UniProt P17106, residues 1-351)
Sequence of UniProt P17106 (whole entry, looked up): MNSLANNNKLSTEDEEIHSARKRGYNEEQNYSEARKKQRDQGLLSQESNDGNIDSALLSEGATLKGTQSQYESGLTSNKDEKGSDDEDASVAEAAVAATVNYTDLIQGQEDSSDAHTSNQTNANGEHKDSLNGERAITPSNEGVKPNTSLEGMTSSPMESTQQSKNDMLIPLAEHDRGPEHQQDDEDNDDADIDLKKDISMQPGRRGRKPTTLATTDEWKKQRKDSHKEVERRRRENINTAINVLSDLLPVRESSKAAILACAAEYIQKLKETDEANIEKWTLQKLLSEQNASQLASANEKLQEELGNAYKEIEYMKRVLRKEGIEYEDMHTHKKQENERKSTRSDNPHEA
Method: competition protein-binding microarray
Form: double-stranded DNA, one strand shown
Sample: in vitro
Concentration: 2 µM
Setting: whole 60-bp probe, lowest competitor level
Together with: Pho4 competitor, 0.05 µM
Direction: higher = stronger binding
Constant ends, left off below: … GTCTTGATTCGCTTGACGCTGCTG
Oligonucleotide	fluorescence intensity [a.u.]
GACGGCCAAAAACTTCACATGCCGCCCAGCCAAGCA	73.3
GTCTTGTCTCATTGTGTAGTGGGTGTCCCCACTTCA	87.9
TTTAACGCTTATGTACACGGGTGCAAAACTACCCCT	75.4
CACCACTTCTCAAAGAACGTGCAAATAACTCTTCCA	149
CGGGGTTAAGTTTGTCGTGTGGGTGGCTTGCAGCAG	77

Series 3
Target: Histone acetyltransferase KAT6A, winged helix 1, GST fusion (KAT6A, Homo sapiens, UniProt Q92794, residues 1-85)
Method: protein binding microarray
Form: double-stranded DNA, one strand shown
Sample: in vitro
Concentration: not given
Setting: 8-mer, flanks averaged, mean of 2 arrays, mostly near background
Reference: not given
Direction: higher = stronger binding
Target sequence (chain): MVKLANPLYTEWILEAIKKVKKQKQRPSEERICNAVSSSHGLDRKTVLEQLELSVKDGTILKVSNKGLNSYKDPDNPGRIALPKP
Oligonucleotide	E-score
AATATAAG	-0.0528
CAGAGGGA	-0.0789
GCCATTTA	-0.201

Mixed results
Molecule	target	assay	test system	conditions	scale	endpoint	value
PhoQ, residues 284 288 289 292 302 303 DDMDFR	PhoP, residues 12 14 15 18 19 FWNTL (Escherichia coli, UniProt P23836)	Sort-seq, refers to: YFP reporter	E. coli	PhoQ-PhoP variant library, together with: 10 µM Mg2+	reference: high Mg2+ state, higher = stronger signaling	fold induction	0.821
